Assay results from different studies.
Compare with care: the assays were run in different laboratories. Numbers after ± are the reported error.

`C[C@H](CCC(=O)NCC(=O)O)[C@H]1CC[C@H]2[C@@H]3CC[C@@H]4C[C@H](O)CC[C@]4(C)[C@H]3C[C@H](O)[C@]12C` has a plasma concentration of 176 ng/mL (men, C/C genotype, plasma; dose not given, geometric mean).
With `CC(C)C[C@H](NC(=O)[C@@H](Cc1c[nH]c2ccccc12)NC(=O)[C@H](Cc1ccc(O)cc1)NC(=O)[C@H](CO)NC(=O)[C@H](Cc1c[nH]c2ccccc12)NC(=O)[C@H](Cc1c[nH]cn1)NC(=O)[C@@H]1CCC(=O)N1)C(=O)N[C@@H](CCCNC(=N)N)C(=O)N1CCC[C@H]1C(=O)NCC(N)=O` the plasma concentration was 0.0284 ng/mL (Chinese children, precocious puberty, plasma; intramuscular, 22.5 mg, 8640 h, month 12, mean).
`C[C@H]1O[C@@H](O[C@H]2CC[C@@]3(C)[C@@H](CC[C@]4(C)[C@@H]3C=C[C@]35OC[C@@]6(CCC(C)(C)C[C@H]63)[C@@H](O)C[C@]54C)[C@]2(C)CO)[C@H](O)[C@@H](O[C@@H]2O[C@H](CO)[C@@H](O)[C@H](O)[C@H]2O)[C@H]1O` gave a plasma concentration of 14.8 ng/mL (UHPLC-MS/MS; mouse, plasma; oral, 50 mg/kg, 1 h).
For `C[C@]12O[C@H](C[C@]1(O)CO)n1c3ccccc3c3c4c(c5c6ccccc6n2c5c31)CNC4=O`, the viability was 14.3% (OCI-Ly1; 1 µM, 120 h).
`O=C(O)[C@H]1O[C@@H](Oc2ccccc2O)[C@H](O)[C@@H](O)[C@@H]1O` has a plasma concentration of 236 nM (human plasma; mean).
For `Nc1ccccc1NC(=O)c1ccc(CNC(=O)OCc2cccnc2)cc1`, the viability was 89.7% (OCI-Ly1; 1 µM, 120 h).
For `COc1ccc(C2CC(=O)c3c(O)cc(O)cc3O2)cc1O[C@@H]1O[C@H](C(=O)O)[C@@H](O)[C@H](O)[C@H]1O` (stereo partly drawn), the plasma concentration was 599 nM (human plasma; median).
For `C[C@H](CCC(=O)NCC(=O)O)[C@H]1CC[C@H]2[C@@H]3[C@H](O)C[C@@H]4C[C@H](O)CC[C@]4(C)[C@H]3CC[C@]12C`, the plasma concentration was 331 ng/mL (women, T/C genotype, plasma; dose not given, geometric mean).
With `Cc1c(-c2ccc(N3CCc4cccc(C(=O)Nc5nc6ccccc6s5)c4C3)nc2C(=O)O)cnn1CC12CC3(C)CC(C)(C1)CC(OCCNCC[C@H](O)CO)(C3)C2` the plasma concentration was 29 ng/mL (anaesthetized male beagle dog; iv infusion, 0.1 mg/kg/min, 15 min).
For `O=C(O)CCc1cccc(O)c1`, the plasma concentration was 1770 nM (human plasma; mean).
For `O=C1CCC(N2Cc3cc(CO)c(F)cc3C2=O)C(=O)N1` (stereo not drawn), the plasma concentration was 1.06 ± 0.94 ng/mL (cynomolgus monkey, male; oral, 0.3 mg/kg parent drug, 3 h).
`O=c1c(O)c(-c2ccc(O)c(O)c2)oc2cc(O)cc(O)c12` gave a plasma concentration of 312 nM (human plasma; median, both sexes).
For `NCc1cc2c(cc1F)C(=O)N(C1CCC(=O)NC1=O)C2` (stereo not drawn), plasma concentration read “not detected” (cynomolgus monkeys; oral, 0.3 mg/kg, 0.117 h).
With `Cn1cc([C@H]2C[C@H]3CSC(N)=N[C@@]3(c3ccc(F)cc3F)CO2)cn1` the plasma concentration was 79 nM (male 129/SVE mouse, plasma; subcutaneous, 10 mg/kg, 9 h).
With `O=Cc1cc2c(cc1F)C(=O)N(C1CCC(=O)NC1=O)C2` (stereo not drawn) the plasma concentration was 0.24 ng/mL (cynomolgus monkey, male; oral, 0.3 mg/kg parent drug, 6 h).
`COc1cc(C(=O)O)ccc1O` gave a plasma concentration of 101 nM (human plasma; mean, both sexes).
The plasma concentration of `CC(=O)NCc1cc2c(cc1F)C(=O)N(C1CCC(=O)NC1=O)C2` (stereo not drawn) is reported as 0.35 ng/mL (cynomolgus monkey, male; oral, 0.3 mg/kg parent drug, 3 h).
With `Cc1c(C(=O)O)ccc2c3n(nc12)[C@@H]1[C@H](C3)N(CC2CC2)[C@@]2(C(=O)Nc3cc(Cl)ccc32)[C@H]1c1cccc(Cl)c1F` the plasma concentration was 1880 nM (female BALB/c nude mice, SJSA-1 xenograft, plasma; oral, 2 mg/kg once daily, 4 h).

Repeated from above:
For `Nc1ccccc1NC(=O)c1ccc(CNC(=O)OCc2cccnc2)cc1`, the viability was 89.7% (OCI-Ly1; 1 µM, 120 h).
